Results pooled from the literature.
Parts stem from different laboratories: compare values within a part only.

Series 1 — technique: aptamer microarray, sandwich; molecule type: DNA with 2'F-ANA; matrix: in vitro; concentration: 200 nM; with: Cy3 exosite-II aptamer, 400 nM; reading: higher = stronger binding; sequence: GGTTGGTGTGGTTGG
Target: Prothrombin, mature alpha-thrombin (F2, Homo sapiens, UniProt P00734)
Notes: whole 15-mer aptamer, many near background
Modification	mean fluorescence intensity
2'F-ANA at 1 4 6 9 11 12	191 a.u.
2'F-ANA at 1 3 6 8 9 11 15	262 a.u.
2'F-ANA at 2 3 5 6 8 10 11 12 13 14 15	53 a.u.
2'F-ANA at 1 2 6 9 10 12 13 14 15	49.9 a.u.
2'F-ANA at 1 2 3 5 9 12 14 15	44.7 a.u.
2'F-ANA at 1 2 3 4 8 10 13 14	52 a.u.
2'F-ANA at 1 2 3 4 8 9 11 12 15	332 a.u.
2'F-ANA at 1 2 4 5 6 7 8 9 11 12 14 15	48.6 a.u.
2'F-ANA at 1 2 4 6 9 10 11 12 13 15	54.7 a.u.
2'F-ANA at 1 3 4 7 9 11 12 13	221 a.u.
2'F-ANA at 1 2 3 6 7 8 10 12 13 14 15	58.9 a.u.
2'F-ANA at 1 2 3 6 7 9 10 15	65.4 a.u.
2'F-ANA at 1 3 4 5 7 12 13	86.1 a.u.
2'F-ANA at 1 3 4 8 9 15	262 a.u.
2'F-ANA at 1 2 3 5 7 10 13	47.8 a.u.
2'F-ANA at 2 3 7 9 11 12 14	467 a.u.
2'F-ANA at 3 8 9 13 14	617 a.u.
2'F-ANA at 1 2 4 6 7 8 10 11 13 14 15	50.9 a.u.
2'F-ANA at 2 3 4 5 7 8 12	263 a.u.
2'F-ANA at 1 4 6 7 10 11 12 14 15	45.7 a.u.
2'F-ANA at 2 5 6 7 10 11 12 15	53.8 a.u.
2'F-ANA at 3 5 7 9 10 12 13 15	112 a.u.
2'F-ANA at 1 4 7 8 10 12 15	61.3 a.u.
2'F-ANA at 1 5 6 7 11	49.9 a.u.
2'F-ANA at 1 3 4 5 7 10 11 15	50.6 a.u.

Series 2 — technique: protein-binding microarray; molecule type: double-stranded DNA, one strand shown; matrix: in vitro; concentration: 940 nM top; notes: 60-bp whole probe; with: salmon DNA 0.4 mg/ml; baseline: random background probes; reading: higher = stronger binding; constant ends, left off below: GCCTAGCAC … GTCTTGATTCGCTTGACGCTGCTG
Target: Interferon regulatory factor 5, full length, phosphomimetic (IRF5, Homo sapiens, UniProt Q13568-2, residues 1-514, S451D/S453D/S456D/S462D)
Sequence	fitted relative affinity
TTAGATATCCGGTTTCGATTAGTGCTA	6.46 z-score
GACGGTATCCTTCCCCTGACGTGCTAG	0.451 z-score
CCAAACCTGTGCGCCGTGCCGTGCTAG	-0.307 z-score
GACGATATCAGTTTCGAGGCGTGCTAG	3.9 z-score
GACGATTCCCTTTTCCTGACGTGCTAG	0.791 z-score
TCACACATCTCACTCTAACTGTGCTAG	1.25 z-score
TTATATATCAGTTTCGATTAGTGCTAG	8.58 z-score
TTAGGTATCCTCCTCCTTTAGTGCTAG	0.589 z-score
TCATTTTTAATGAATGAAACTGTGCTA	0.238 z-score
GATGGTATCCTTCTCCTGACGTGCTAG	0.614 z-score
GCCGGACTGCTTATCCTGACGTGCTAG	-0.683 z-score
GAGGAGATGAGAAACGATGAGTGCTAG	0.106 z-score
AACGGACTGGGGACTGGGGACGTGCTA	-0.16 z-score
TTATGTTTCGGTATCGGTTAGTGCTAG	9.58 z-score
TTAGGTTCACTTTTCCTTTAGTGCTAG	0.554 z-score
GACGATATCGGGACTGGTGACGTGCTA	-0.404 z-score
GACGGTTTCGGGTATCGGCACGTGCTA	9 z-score
TCAAGCCTCTGCATTCCCACTGTGCTA	-0.0712 z-score
TTAGATTTCAGACTGGTTTAGTGCTAG	0.157 z-score
TTAGGTAACGGGACTGGGTTAGTGCTA	-0.242 z-score
GACGGTTTCCTTTCCCTGATGTGCTAG	1.72 z-score
ATGGCTTTGCCTTTTGCTTTGTGCTAG	-0.678 z-score
GAAGGTCTCCTTCTCCTGACGTGCTAG	-0.0754 z-score
GAAGGTATCGGACTGGGGACGTGCTAG	1.78 z-score
TTAGGTCTCCTTATCCTTTTGTGCTAG	0.386 z-score

Series 3 — technique: RNA Bind-n-Seq; molecule type: RNA; matrix: in vitro; concentration: 365 nM; baseline: no-protein control; reading: higher = stronger binding
Target: RNA binding protein fox-1 homolog 2, RRM domain, GST-SBP tag (RBFOX2, Homo sapiens, UniProt O43251-10, residues 100-194)
Notes: natural RNA segment, single round, ends assumed
Constant ends, left off below: GGGAGUUCUACAGUCCGACGAUC … UGGAAUUCUCGGGUGCCAA
Target sequence (chain): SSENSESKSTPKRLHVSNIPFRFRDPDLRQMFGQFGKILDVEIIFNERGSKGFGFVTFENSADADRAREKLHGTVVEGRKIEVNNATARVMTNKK
Sequence	RBNS enrichment (R)
UUUAUUAGAACACUGCAGUUGACUGAAAACAUGCAGAUGCACUGGAAGAGAACCUUGUGCUGAGGUAAUGGCCUCCCACUGCCGCCUGAGUGCUGAAAUGAGCUUGAGGU	0.482
GAGAUUACAGGCGUGAGCCACCGCACCUGGCCAAUGUUCUUUUAUAUACUCAUGUUUUCUAACAAAACAGCUUUGGAUUUAUAAUGCUGCCAGAUGUCAUUACAAUUUUU	0.423
CUAGGGGUAGGCGAUUGACUGCCUGAUUUUAGAGCAGGGAGCCCGGCCCCUUCUUUUGUCUUCCUGGCAGGAAAGCAAGACAGUGAGCCAUGCCCUAAAACACUCACACC	0.378
GGAAAGGAACCAAGUGACUCUGAUGUUUACAAAGCACCUAUGAAACCCUGUACACACCUAGUUCAUAAUCCUCAUAAUUUAUCAACAAACACAAAAAAGUGUCUUACUUG	0.505
ACCUGAUGCCAGAUUUUUUUCAUAAAUAUUCUGCCUACUGUAAAUAUGGGUUCCUCUGAGUUGUUUUAGAAAAUUAGCGCAAUGUAUUAAAAUCAAGUGUUAGGAAAUUU	0.538
GGCUUGCCAGACACAGGAAUGGCCCCGAUUAUGUCACCAAUAUUGUCACAUGUGGGCCAAGAAUAGAGUCACAUGUGGUGGAAAGAUGAGGAGUUAGGCUGUAGAAGUGA	1.16
UCAUAAGAAGCUGAGAGAAAGAGAGGGGAAAAAGAAAGUGGCUUUCUACUUUCAAAAAUGAAACAAAAAGGAAAAAUGGCAAAGUACUGUUUUAGCUGUGCAUGUCAUAU	2.37
AUCUUGUGUAUGUUUUUGGUGCGUAAAAGGGAAAAAUUGGUGUCAUUACUUUUGAAAUUUGCAGGACGAAGGGCAUGCUUUUGGUUUGCUGUAAGAUUGUAUUCUGUAUA	1.7
UGUGUCGCCCUAUAUUGAGGGCUCAAGCUUUCCCUUGUUUUUUGAAAGGGGUUUAUGUAUAAAUAUAUUUUAUGCCUUUUUAUUACAAGUCUUGUACUCAAUGACUUUUG	0.347
AGACAUUGAUAUUGACUAUUUAGAGAACCGUUGUUAAUUUUAAAACUAGCAAUCUAUAAAGUGCACCAGGUCAACUUGAAUAAAAACACUAUGACAGACAGGUUUGCCAG	0.603
CGAACAGGGCGAAGAGCUGGUUAGGGUCAGACAACCUCGGUGGCCUGUGUGUCACUUCCCUCACCUCACAGGCUGUGACCCUACCCUGGGUCCCUUGUACAUAACUCCUU	0.27
CCUGGUGCUGGGGGCAGCCGGUGCGGCCCCAGGGAGUCCCAGCUUAGUAACCUCGCCUCUCUUCUUGAACCACACCGGUCUGCCGCUGCUCAGUGCCCCACCAGGCGUGG	0.368

Series 4 — technique: protein binding microarray; molecule type: double-stranded DNA, one strand shown; matrix: in vitro; concentration: not given; baseline: not given; reading: higher = stronger binding
Target: Histone acetyltransferase KAT6A, winged helix 1, GST fusion (KAT6A, Homo sapiens, UniProt Q92794, residues 1-85)
Notes: 8-mer, flanks averaged, mean of 2 arrays, mostly near background
Construct (chain): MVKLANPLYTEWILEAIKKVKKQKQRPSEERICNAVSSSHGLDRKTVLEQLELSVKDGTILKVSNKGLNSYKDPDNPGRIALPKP
Sequence	E-score
CAGAGCGA	-0.105
CCAAGCAG	-0.111
CACTCTAC	-0.187
AAGTGGTG	-0.14
CACTTTGA	-0.284
ACTCTCTG	-0.149
GGTGATGA	-0.127
CCGCGCCC	0.41
CTGTTATC	-0.29
CCGAGCTA	0.22
AACGCTAA	0.0573
ACGATACC	0.000205
TAATGAGA	-0.0876
TCATAAGA	-0.15
AGGGAAAA	-0.0784
AGCTGTGA	-0.18
CATTGTTC	-0.0551

Repeated from above (series 1):
Modification	mean fluorescence intensity
2'F-ANA at 1 2 3 4 8 9 11 12 15	332 a.u.
2'F-ANA at 1 4 7 8 10 12 15	61.3 a.u.
2'F-ANA at 1 2 4 5 6 7 8 9 11 12 14 15	48.6 a.u.
2'F-ANA at 1 2 3 5 9 12 14 15	44.7 a.u.
2'F-ANA at 1 3 4 5 7 12 13	86.1 a.u.
2'F-ANA at 2 3 7 9 11 12 14	467 a.u.
2'F-ANA at 1 2 6 9 10 12 13 14 15	49.9 a.u.
2'F-ANA at 1 2 3 4 8 10 13 14	52 a.u.
2'F-ANA at 1 2 4 6 7 8 10 11 13 14 15	50.9 a.u.
2'F-ANA at 1 5 6 7 11	49.9 a.u.
2'F-ANA at 1 2 3 6 7 8 10 12 13 14 15	58.9 a.u.
2'F-ANA at 1 2 3 5 7 10 13	47.8 a.u.
